Measured values of several laboratories.
Protocols differ between the studies behind these lines. Numbers after ± are the reported error.
Organism: HIV-1

Cc1cc(/C=C/C#N)cc(C)c1Oc1cc(Nc2ccc(C#N)cc2)c(N)cc1[N+](=O)[O-] — EC50 (viral replication; TZM-bl, NL4-3): ≤ 0.0007 µM
CC(=NNC(=O)CN1c2c(-c3ccccc3)n[nH]c2-c2ccccc2S1(=O)=O)c1ccsc1 — EC50 (viral replication; PBMC): 24.3 µM
NC(=O)CCNC(=O)c1ccccc1S — EC50 (viral replication; human monocytes/macrophages, subtype B 91US005, CCR5-tropic): 2.5 µM
Cc1ccc(N2C(=O)CCC2(CN)c2ccccc2)cc1 (stereo not shown) — EC50 (viral replication; human PBMC, LAI): 32.6 µM
Cc1ccc(S(=O)(=O)N2C(=O)CSC2c2cccc(Br)c2)cc1 (stereo not shown) — EC50 (viral cytopathicity, MTT; MT-4, IIIB): > 125 µM
N=C(N)NCCC[C@H](NC(=O)[C@H](CCCNC(=N)N)NC(=O)[C@H](CCCNC(=N)N)NC(=O)[C@H](CCCNC(=N)N)NC(=O)[C@H](CCCNC(=N)N)NC(=O)[C@H](CCCNC(=N)N)NC(=O)[C@H](CCCNC(=N)N)NC(=O)CCCCCCCCCCCCC(=O)OC[C@@H]1O[C@H](n2ccc(N)nc2=O)CS1)C(=O)O — EC50 (viral replication, MAGI single-round infection; IIIB, X4-tropic; cell-free virus): 8.7 µM
Nc1ccc(S(=O)(=O)N2CCN(CC(=O)N[C@@H](Cc3ccccc3)c3nc4ccccc4c(=O)n3-c3ccc(S(=O)(=O)N4CCS(=O)(=O)CC4)cc3)C(=O)C2)cc1 — EC50 (viral replication, MTT; MT-4, IIIB): 1.98 ± 0.96 µM
CC(=NNC(=O)CN1c2c(-c3ccccc3)n[nH]c2-c2ccccc2S1(=O)=O)c1ccc(Cl)s1 — EC50 (viral replication; PBMC): > 100 µM
O=C(CN1c2c(n[nH]c2-c2cccc(Cl)c2)-c2ccccc2S1(=O)=O)NN=Cc1ccc(Cl)cc1 — EC50 (viral replication; PBMC): < 5 µM
Cc1cc(C#N)cc(C)c1Oc1nc(Nc2ccc(C#N)cc2)nc(N)c1Br — EC50 (viral replication; MT4, IIIB wild type): 0.00313 ± 0.000902 µM
Cc1ccc(S(=O)(=O)N2C(=O)CSC2c2ccccc2O)cc1 (stereo not shown) — EC50 (viral cytopathicity, MTT; MT-4, IIIB): > 125 µM
Cc1cc(C#N)cc(C)c1Oc1nc(NC2CCN(Cc3ccc(S(N)(=O)=O)cc3)CC2)ncc1-c1ccoc1 — EC50 (viral replication; MT4, IIIB, wild type): 0.0028 µM
O=C(CN1c2c(n[nH]c2-c2cccc(Cl)c2)-c2ccccc2S1(=O)=O)NN=Cc1cccc([N+](=O)[O-])c1 — EC50 (viral replication; PBMC): 92.4 µM
CC(C)CN(C[C@@H](O)[C@H](Cc1ccccc1)NC(=O)O[C@H]1CCOC1)S(=O)(=O)c1ccc(N)cc1 — EC50 (viral replication, Monogram susceptibility; wild-type control strain): 0.0055 µM
C[C@H](NP(=O)(OCCOCn1cnc2c(=O)[nH]c(N)nc21)Oc1ccccc1)C(=O)OCc1ccccc1 (stereo partly shown) — EC50 (viral replication): 0.6 µM
CC(=NNC(=O)CN1c2c(-c3ccccc3)n[nH]c2-c2ccccc2S1(=O)=O)c1ccncc1 — EC50 (viral replication; PBMC): 80.5 µM
Cc1cc(C#N)cc(C)c1Oc1cc(Nc2ccc(C#N)cc2)c(N)cc1[N+](=O)[O-] — EC50 (viral replication; MT-2, drug-resistant): 0.005 to 0.604 µM
CCCC(=O)OCSc1ccccc1C(=O)NCCC(N)=O — EC50 (viral replication; human monocytes/macrophages, subtype B ADA, CCR5-tropic): 20.1 µM
COc1cc(C=NNC(=O)CN2c3c(n[nH]c3-c3cccc(Cl)c3)-c3ccccc3S2(=O)=O)cc(OC)c1OC — EC50 (viral replication; PBMC): 5.8 µM
COc1ccc(CNC(=O)Cn2nc3c(c2C)N(C)S(=O)(=O)c2ccccc2-3)cc1 — EC50 (viral replication; PBMC): < 20 µM
Cc1ccc(N2C(=O)CCC2(C#N)c2ccc(OCc3ccccc3)cc2)cc1 (stereo not shown) — EC50 (viral replication; human PBMC, LAI): 16.7 µM
O=C(O)c1cc(-c2ccc(/C=C3\SC(=S)N(CCc4ccccc4)C3=O)o2)ccc1Cl — EC50 (viral replication; MT-2): < 0.1 µM
COc1cc(Cl)ccc1Oc1cc(Cl)cc(C#N)c1 — EC50 (viral replication; MT-2, IIIB wild type): 9.9 µM
COc1ccc(-n2c([C@H](Cc3ccccc3)NC(=O)CN3CCN(S(=O)(=O)c4ccc([N+](=O)[O-])cc4)CC3=O)nc3cc(Br)ccc3c2=O)cc1 — EC50 (viral replication, MTT; MT-4, IIIB): 2.4 ± 0.81 µM
CCOC(=O)[C@H](C)NP1(=O)OCC(OCn2cnc3c(=O)[nH]c(N)nc32)CO1 (stereo partly shown) — EC50 (viral replication; 288 h): 9 µM
CC(=NNC(=O)CN1c2c(-c3ccccc3)n[nH]c2-c2ccccc2S1(=O)=O)c1cccs1 — EC50 (viral replication; PBMC): < 20 µM
Cc1ccc(S(=O)(=O)N2C(=O)CSC2c2ccccc2F)cc1 (stereo not shown) — EC50 (viral cytopathicity, MTT; MT-4, IIIB): 111 µM
COc1ccc(-n2c([C@H](Cc3cc(F)cc(F)c3)NC(=O)CN3CCN(S(=O)(=O)c4ccc([N+](=O)[O-])cc4)CC3=O)nc3cc(Br)ccc3c2=O)cc1 — EC50 (viral replication, MTT; MT-4, IIIB): 0.99 ± 0.25 µM
COC(=O)CNc1c(C(=O)NCc2ccc(F)cc2F)c(=O)n(O)c2ncccc12 — EC50 (viral infectivity, single-round infection; HOS, integrase wild type): 0.0038 ± 0.0012 µM
O=C(CN1c2c(n[nH]c2-c2cccc(Cl)c2)-c2ccccc2S1(=O)=O)NN=Cc1ccc(Cl)cc1Cl — EC50 (viral replication; PBMC): 19.6 µM
CC(=NNC(=O)CN1c2c(-c3ccccc3)n[nH]c2-c2ccccc2S1(=O)=O)c1ccc(C)s1 — EC50 (viral replication; PBMC): 12.3 µM
O=C(CN1CCN(S(=O)(=O)c2ccc([N+](=O)[O-])cc2)CC1=O)N[C@@H](Cc1ccccc1)c1nc2ccccc2c(=O)n1-c1ccc(S(=O)(=O)N2CCOCC2)cc1 — EC50 (viral replication, MTT; MT-4, IIIB): 1.21 ± 0.65 µM
CC(=NNC(=O)CN1c2c(-c3ccccc3)n[nH]c2-c2ccccc2S1(=O)=O)c1ccc[nH]1 — EC50 (viral replication; PBMC): > 100 µM
Nc1ccc(S(=O)(=O)N2CCN(CC(=O)N[C@@H](Cc3cc(F)cc(F)c3)c3nc4ccccc4c(=O)n3-c3ccc(S(=O)(=O)N4CCS(=O)(=O)CC4)cc3)C(=O)C2)cc1 — EC50 (viral replication, MTT; MT-4, IIIB): 1.51 ± 1.34 µM
COC(=O)CN1C(C(=O)c2cccc(Cl)c2)=C(O)c2ccccc2S1(=O)=O — EC50 (viral replication; PBMC): 20 µM
Cc1cc(/C=C/C#N)cc(C)c1Oc1ccc(N)c(Nc2ccc(C#N)cc2)c1 — EC50 (viral replication; TZM-bl, NL4-3): ≤ 0.0007 µM
N#C/C=C/c1cc(Cl)cc(Oc2ccc(Cl)cc2OCCn2ccc(=O)[nH]c2=O)c1 — EC50 (viral replication; T cells, IIIB, wild type): 2.4e-05 µM
Cc1ccc(S(=O)(=O)N2C(=O)CSC2c2cccc([N+](=O)[O-])c2)cc1 (stereo not shown) — EC50 (viral cytopathicity, MTT; MT-4, IIIB): > 125 µM
Cc1c2c(nn1CC(=O)NCc1ccccc1Br)-c1ccccc1S(=O)(=O)N2C — EC50 (viral replication; PBMC): < 20 µM
CC[C@H](C)CN(C[C@@H](O)[C@H](Cc1ccccc1)NC(=O)[C@@H](NC(C)=O)[C@@H](C)CC)S(=O)(=O)c1ccc2ncsc2c1 — EC50 (viral replication, Monogram susceptibility; wild-type control strain): 0.0027 µM
CC[C@H](C)[C@@H]1NC(=O)[C@@H]2CSSC[C@@H]3NC(=O)[C@H](C(C)C)NC(=O)[C@H](CCCCN)NC(=O)[C@H](CCCNC(N)=O)NC(=O)[C@H](Cc4ccc(O)cc4)NC(=O)[C@@H]4CSSC[C@H](NC(=O)[C@H](CCCNC(N)=O)NC(=O)[C@H](CCCNC(=N)N)NC(=O)[C@H](Cc5ccc(O)cc5)NC(=O)[C@H](CO)NC(=O)CNC(=O)[C@@H]5CSSC[C@H](NC(=O)[C@H](CC(=O)O)NC(=O)[C@H](CO)NC(=O)[C@H](CC(=O)O)NC(=O)[C@H](CCCNC(=N)N)NC(=O)[C@H](CCCNC(=N)N)NC(=O)[C@H](CSSC[C@H](NC1=O)C(=O)N[C@@H](CCCNC(=N)N)C(=O)NCC(=O)N[C@@H](CC(N)=O)C(=O)NCC(=O)N[C@@H](Cc1ccc(O)cc1)C(=O)N5)NC(=O)[C@H](CCCNC(=N)N)NC(=O)[C@H](CCC(N)=O)NC(=O)[C@H](CC(C)C)NC(=O)[C@H]([C@@H](C)CC)NC(=O)[C@H](CCCCN)NC(=O)[C@@H]1CCCN1C3=O)C(=O)N1CCC[C@H]1C(=O)NCC(=O)N[C@@H](C)C(=O)N2)C(=O)N[C@@H](CCCNC(=N)N)C(=O)NCC(=O)N1CCC[C@@H]1C(=O)N[C@@H](CCCNC(=N)N)C(=O)N[C@@H](CCCNC(=N)N)C(=O)N[C@@H](Cc1ccc2ccccc2c1)C(=O)N4 — EC50 (viral replication; CXCR4-tropic): 0.002 ± 0.0003 µM
O=C(CN1c2c(n[nH]c2-c2cccc(Cl)c2)-c2ccccc2S1(=O)=O)NN=Cc1c(Cl)cccc1Cl — EC50 (viral replication; PBMC): 12.5 µM
Cc1ccc(NC(C#N)c2ccc(OCc3ccc(Cl)cc3Cl)cc2)cc1 (stereo not shown) — EC50 (viral replication; human PBMC, LAI): < 5 µM
COc1cccc(C=NNC(=O)CN2c3c(n[nH]c3-c3cccc(Cl)c3)-c3ccccc3S2(=O)=O)c1 — EC50 (viral replication; PBMC): > 10 µM
Cc1ccc(N2C(=O)CCC2(C#N)c2ccc(OCc3ccc(Cl)cc3Cl)cc2)cc1 (stereo not shown) — EC50 (viral replication; human PBMC, LAI): 5.3 µM
CC(=NNC(=O)CN1c2c(-c3ccccc3)n[nH]c2-c2ccccc2S1(=O)=O)c1cc(C)oc1C — EC50 (viral replication; PBMC): > 100 µM
COc1ccc(-n2c([C@H](Cc3ccccc3)NC(=O)CN3CCN(S(=O)(=O)c4ccc(N)cc4)CC3=O)nc3cc(F)ccc3c2=O)cc1 — EC50 (viral replication, MTT; MT-4, IIIB): 0.82 ± 0.15 µM
CC(=NNC(=O)CN1c2c(-c3ccccc3)n[nH]c2-c2ccccc2S1(=O)=O)c1ccc(C)o1 — EC50 (viral replication; PBMC): 75.7 µM
Cc1ccc(S(=O)(=O)N2C(=O)CSC2c2ccc(O)cc2)cc1 (stereo not shown) — EC50 (viral cytopathicity, MTT; MT-4, IIIB): > 125 µM
N#Cc1ccc(Oc2cc(Cl)ccc2Cl)c(OCCc2ccncc2)c1 — EC50 (viral replication; MT-2, IIIB wild type): 0.76 µM
O=C(CN1CCN(S(=O)(=O)c2ccc([N+](=O)[O-])cc2)CC1=O)N[C@@H](Cc1ccccc1)c1nc2ccccc2c(=O)n1-c1ccc(S(=O)(=O)N2CCS(=O)(=O)CC2)cc1 — EC50 (viral replication, MTT; MT-4, IIIB): 12.6 ± 18.7 µM
O=C(CN1c2c(n[nH]c2-c2cccc(Cl)c2)-c2ccccc2S1(=O)=O)NN=Cc1ccc(C(=O)O)cc1 — EC50 (viral replication; PBMC): 8.3 µM
Nc1c(C(=O)NCc2ccc(F)cc2F)c(=O)n(O)c2ncc(CCCCCCOC(=O)c3ccccc3)cc12 — EC50 (viral infectivity, single-round infection; HOS, integrase wild type): 0.0048 ± 0.0016 µM
Cc1ccc(S(=O)(=O)N2C(=O)CSC2c2ccccc2)cc1 (stereo not shown) — EC50 (viral cytopathicity, MTT; MT-4, IIIB): > 125 µM
N=C(N)NCCC[C@H](NC(=O)[C@H](CCCNC(=N)N)NC(=O)[C@H](CCCNC(=N)N)NC(=O)[C@H](CCCNC(=N)N)NC(=O)[C@H](CCCNC(=N)N)NC(=O)[C@H](CCCNC(=N)N)NC(=O)[C@H](CCCNC(=N)N)NC(=O)CCCCCCCCCCCCC(=O)OC[C@@H]1O[C@H](n2cc(F)c(N)nc2=O)CS1)C(=O)O — EC50 (viral replication, MAGI single-round infection; IIIB, X4-tropic; cell-free virus): 3 µM

Excerpt of the above:
Cc1ccc(N2C(=O)CCC2(C#N)c2ccc(OCc3ccccc3)cc2)cc1 (stereo not shown) — EC50 (viral replication; human PBMC, LAI): 16.7 µM
O=C(O)c1cc(-c2ccc(/C=C3\SC(=S)N(CCc4ccccc4)C3=O)o2)ccc1Cl — EC50 (viral replication; MT-2): < 0.1 µM
COc1cc(Cl)ccc1Oc1cc(Cl)cc(C#N)c1 — EC50 (viral replication; MT-2, IIIB wild type): 9.9 µM
COc1ccc(-n2c([C@H](Cc3ccccc3)NC(=O)CN3CCN(S(=O)(=O)c4ccc([N+](=O)[O-])cc4)CC3=O)nc3cc(Br)ccc3c2=O)cc1 — EC50 (viral replication, MTT; MT-4, IIIB): 2.4 ± 0.81 µM
